Measurements collected from several papers.
Compare with care: the assays were run in different laboratories.

SMILES = Cc1ccc(F)c2cc(C(=O)N[C@@H]3CCC[C@H](N4CC[C@H](N(C)S(C)(=O)=O)C4)C3)[nH]c12; species = CD1 mouse; route = intravenous; dose = 1 mg/kg; AUC(0-inf) = 0.314 µg·h/mL
SMILES = CC/C(=C(\c1ccccc1)c1ccc(OCCN(C)C)cc1)c1ccccc1; species = CD-1 mouse, male; sample = plasma; route = intraperitoneal; dose = 30 mg/kg; AUC(0-inf) = 8.22 µg·h/mL
SMILES = N#C[C@@]1(n2ccc(N)nc2=O)O[C@H](CO)[C@@H](O)[C@H]1O; species = CD-1 mouse; sample = plasma; route = intravenous; dose = 15 mg/kg; AUC(0-inf) = 21 µg·h/mL
SMILES = Cc1[nH]c(C)c(S(=O)(=O)Nc2ccc(S(F)(F)(F)(F)F)cc2)c1C(=O)N1CCC(F)(F)C1; species = mouse; sample = plasma; route = intraperitoneal; dose = 40 mg/kg; AUC(0-inf) = 190000 ng·h/g
SMILES = COc1cc2c(cc1OC)CN(CCc1ccc(NC(=O)c3cccc4c(=O)c5cccc(OC)c5[nH]c34)cc1)CC2; species = CD-1 mouse, male; sample = plasma; route = intraperitoneal; dose = 10 mg/kg; AUC(0-inf) = 12.5 µg·h/mL
SMILES = CC[C@H](C)[C@@H]1NC(=O)[C@H](CCCNC(=N)N)NC(=O)C[C@@H](c2cccc3ccccc23)NC(=O)[C@@H]2CSSC[C@H](NC(=O)C[C@@H](c3cccc4ccccc34)NC(=O)[C@H](CCCNC(=N)N)NC(=O)[C@@H]3CCCN3C(=O)[C@@H]3CCCN3C1=O)C(=O)N[C@@H](Cc1ccccc1)C(=O)N1CCC[C@H]1C(=O)N[C@@H](CC(=O)O)C(=O)N[C@@H](CC(=O)O)C(=O)N[C@@H](Cc1ccccc1)C(=O)N2; species = athymic nude mouse; route = intravenous; dose = 6 mg/kg; AUC(0-inf) = 701 µg·h/mL
SMILES = O=c1ccc2ncc(=O)n3c2n1C[C@H]3CN1CCC(NCc2cc3c(cn2)OCCC3)CC1; species = healthy human volunteers; sample = plasma; route = oral; dose = 1500 mg; setting = single dose alone, geometric mean; AUC(0-inf) = 19.3 µg·h/mL
SMILES = COc1ccc(C[C@@H]2NC(=O)[C@H]([C@@H](C)O)NC(=O)[C@@H]3[C@@H]4CCN3C(=O)[C@@H]3Cc5cn(c6ccc(F)cc56)CCCCCCN(Cc5ccc(cc5)CCNC(=O)[C@]5(C)CCCN5C2=O)C(=O)CCC(=O)N[C@@H](C)C(=O)N[C@H](CNC(=O)CCCCC[N+](C)(C)C)C(=O)N[C@@H](Cc2cccc(c2)CNC(=O)CO4)C(=O)N3)cc1; species = healthy human males; sample = plasma; route = oral; dose = 200 mg single; setting = geometric mean; added = Labrasol 1800 mg; AUC(0-inf) = 1250 nM·h
SMILES = CN[C@H]1CC[C@@H](c2ccc(Cl)c(Cl)c2)c2ccccc21; species = CD-1 mouse, male; sample = plasma; route = intraperitoneal; dose = 10 mg/kg; AUC(0-inf) = 0.745 µg·h/mL
SMILES = CCC[C@@](N)(CO)CCc1ccc(OCCCCCC(C)C)cc1; species = hound dogs, male; route = intravenous; dose = 1.0 mg/kg; setting = geometric mean; AUC(0-inf) = 4560 nM·h

Repeated from above:
SMILES = N#C[C@@]1(n2ccc(N)nc2=O)O[C@H](CO)[C@@H](O)[C@H]1O; species = CD-1 mouse; sample = plasma; route = intravenous; dose = 15 mg/kg; AUC(0-inf) = 21 µg·h/mL
